Measured values of several laboratories.
Numbered parts are unrelated; each lists some results of a single study. “And” joins repeats or separate records; there may be more than shown.
Chain of UniProt Q9UM73 (whole entry, unmodified, looked up): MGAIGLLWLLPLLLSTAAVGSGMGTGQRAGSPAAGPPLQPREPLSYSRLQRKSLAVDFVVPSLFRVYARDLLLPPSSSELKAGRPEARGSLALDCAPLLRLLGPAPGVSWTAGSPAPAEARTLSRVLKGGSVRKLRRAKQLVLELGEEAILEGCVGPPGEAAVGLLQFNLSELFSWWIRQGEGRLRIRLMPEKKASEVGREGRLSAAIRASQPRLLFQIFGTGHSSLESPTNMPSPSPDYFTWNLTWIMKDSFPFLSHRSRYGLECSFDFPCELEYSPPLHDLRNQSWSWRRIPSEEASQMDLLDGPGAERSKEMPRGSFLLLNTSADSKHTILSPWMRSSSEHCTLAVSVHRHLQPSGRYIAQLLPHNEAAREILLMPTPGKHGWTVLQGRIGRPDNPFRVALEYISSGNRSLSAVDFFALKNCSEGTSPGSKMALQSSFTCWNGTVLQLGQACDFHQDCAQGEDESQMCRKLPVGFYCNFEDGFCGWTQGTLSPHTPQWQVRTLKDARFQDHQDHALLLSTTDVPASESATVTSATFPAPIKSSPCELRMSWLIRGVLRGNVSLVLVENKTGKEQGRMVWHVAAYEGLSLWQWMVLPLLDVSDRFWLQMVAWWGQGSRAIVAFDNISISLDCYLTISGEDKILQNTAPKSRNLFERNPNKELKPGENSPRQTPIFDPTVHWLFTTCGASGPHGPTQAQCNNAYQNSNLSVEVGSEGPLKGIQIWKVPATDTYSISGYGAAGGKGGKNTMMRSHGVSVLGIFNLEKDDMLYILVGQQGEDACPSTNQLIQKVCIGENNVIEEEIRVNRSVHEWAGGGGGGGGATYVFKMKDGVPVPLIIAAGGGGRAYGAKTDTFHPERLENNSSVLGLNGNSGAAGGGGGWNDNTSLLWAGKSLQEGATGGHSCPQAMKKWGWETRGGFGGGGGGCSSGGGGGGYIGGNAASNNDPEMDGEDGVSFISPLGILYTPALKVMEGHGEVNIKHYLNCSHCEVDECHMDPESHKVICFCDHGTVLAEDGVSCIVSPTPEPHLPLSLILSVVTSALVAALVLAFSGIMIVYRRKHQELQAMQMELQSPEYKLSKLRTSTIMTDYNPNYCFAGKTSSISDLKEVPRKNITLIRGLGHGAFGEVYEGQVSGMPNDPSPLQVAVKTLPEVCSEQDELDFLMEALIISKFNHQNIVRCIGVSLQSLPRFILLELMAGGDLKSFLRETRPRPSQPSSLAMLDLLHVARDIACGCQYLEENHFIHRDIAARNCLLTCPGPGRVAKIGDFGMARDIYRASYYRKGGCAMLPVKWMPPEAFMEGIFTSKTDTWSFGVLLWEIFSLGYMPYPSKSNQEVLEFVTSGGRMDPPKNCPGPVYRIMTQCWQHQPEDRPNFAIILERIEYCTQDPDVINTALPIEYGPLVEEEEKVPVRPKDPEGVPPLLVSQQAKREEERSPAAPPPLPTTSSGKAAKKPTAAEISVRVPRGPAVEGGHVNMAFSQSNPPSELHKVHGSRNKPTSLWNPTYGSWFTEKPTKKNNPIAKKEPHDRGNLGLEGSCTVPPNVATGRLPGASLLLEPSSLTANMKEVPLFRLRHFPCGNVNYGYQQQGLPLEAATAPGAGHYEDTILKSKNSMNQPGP
Chain of UniProt Q8NE63 (whole entry, looked up): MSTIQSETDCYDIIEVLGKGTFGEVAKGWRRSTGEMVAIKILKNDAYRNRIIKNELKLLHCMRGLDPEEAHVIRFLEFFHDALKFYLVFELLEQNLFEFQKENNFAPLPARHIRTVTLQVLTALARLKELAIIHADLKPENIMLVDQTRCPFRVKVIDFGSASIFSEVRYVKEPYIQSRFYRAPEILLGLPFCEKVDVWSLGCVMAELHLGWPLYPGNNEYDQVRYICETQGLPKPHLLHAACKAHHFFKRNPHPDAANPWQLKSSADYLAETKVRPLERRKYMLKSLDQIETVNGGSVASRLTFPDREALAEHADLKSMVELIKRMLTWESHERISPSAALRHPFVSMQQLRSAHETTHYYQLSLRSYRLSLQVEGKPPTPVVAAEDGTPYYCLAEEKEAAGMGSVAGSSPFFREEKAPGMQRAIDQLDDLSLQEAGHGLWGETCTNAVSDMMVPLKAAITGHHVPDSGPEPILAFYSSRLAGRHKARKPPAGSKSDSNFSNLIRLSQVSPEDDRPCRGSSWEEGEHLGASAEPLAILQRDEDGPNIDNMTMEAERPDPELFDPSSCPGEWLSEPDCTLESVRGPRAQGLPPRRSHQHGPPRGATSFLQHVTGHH
Chain of UniProt Q8NG66 (whole entry, looked up): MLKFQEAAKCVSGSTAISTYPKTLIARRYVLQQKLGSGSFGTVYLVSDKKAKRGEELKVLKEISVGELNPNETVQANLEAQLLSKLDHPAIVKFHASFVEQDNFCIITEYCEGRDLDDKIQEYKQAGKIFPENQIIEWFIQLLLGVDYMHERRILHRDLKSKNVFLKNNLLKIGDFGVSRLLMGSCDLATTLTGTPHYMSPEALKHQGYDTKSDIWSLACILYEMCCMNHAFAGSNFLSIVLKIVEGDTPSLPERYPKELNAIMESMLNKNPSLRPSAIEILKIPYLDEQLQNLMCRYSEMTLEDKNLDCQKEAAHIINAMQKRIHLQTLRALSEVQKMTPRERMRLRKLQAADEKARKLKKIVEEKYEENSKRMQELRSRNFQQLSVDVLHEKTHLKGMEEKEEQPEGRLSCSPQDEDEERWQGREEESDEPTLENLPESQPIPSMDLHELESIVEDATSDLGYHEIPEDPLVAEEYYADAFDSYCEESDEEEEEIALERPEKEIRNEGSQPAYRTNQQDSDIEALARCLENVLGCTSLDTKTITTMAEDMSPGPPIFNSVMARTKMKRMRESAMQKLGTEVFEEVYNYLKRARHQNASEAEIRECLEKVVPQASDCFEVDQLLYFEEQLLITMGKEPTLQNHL
Chain of UniProt P43403 (whole entry, looked up): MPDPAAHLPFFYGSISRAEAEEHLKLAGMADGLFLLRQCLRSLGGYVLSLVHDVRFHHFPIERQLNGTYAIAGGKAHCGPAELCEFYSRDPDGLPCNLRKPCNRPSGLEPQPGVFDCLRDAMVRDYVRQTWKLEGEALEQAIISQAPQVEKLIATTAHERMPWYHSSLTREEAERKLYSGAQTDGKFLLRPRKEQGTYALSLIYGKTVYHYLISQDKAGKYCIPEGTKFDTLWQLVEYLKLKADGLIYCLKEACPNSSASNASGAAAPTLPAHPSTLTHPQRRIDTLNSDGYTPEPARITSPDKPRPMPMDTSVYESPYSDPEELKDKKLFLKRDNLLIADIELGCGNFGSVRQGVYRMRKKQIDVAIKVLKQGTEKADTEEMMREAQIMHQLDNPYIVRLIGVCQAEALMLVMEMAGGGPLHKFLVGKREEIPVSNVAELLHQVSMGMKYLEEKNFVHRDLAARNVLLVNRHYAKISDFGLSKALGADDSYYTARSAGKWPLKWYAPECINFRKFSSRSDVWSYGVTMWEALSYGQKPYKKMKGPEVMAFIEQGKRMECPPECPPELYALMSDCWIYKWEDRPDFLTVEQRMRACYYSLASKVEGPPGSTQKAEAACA
Chain of UniProt P53667 (whole entry, looked up): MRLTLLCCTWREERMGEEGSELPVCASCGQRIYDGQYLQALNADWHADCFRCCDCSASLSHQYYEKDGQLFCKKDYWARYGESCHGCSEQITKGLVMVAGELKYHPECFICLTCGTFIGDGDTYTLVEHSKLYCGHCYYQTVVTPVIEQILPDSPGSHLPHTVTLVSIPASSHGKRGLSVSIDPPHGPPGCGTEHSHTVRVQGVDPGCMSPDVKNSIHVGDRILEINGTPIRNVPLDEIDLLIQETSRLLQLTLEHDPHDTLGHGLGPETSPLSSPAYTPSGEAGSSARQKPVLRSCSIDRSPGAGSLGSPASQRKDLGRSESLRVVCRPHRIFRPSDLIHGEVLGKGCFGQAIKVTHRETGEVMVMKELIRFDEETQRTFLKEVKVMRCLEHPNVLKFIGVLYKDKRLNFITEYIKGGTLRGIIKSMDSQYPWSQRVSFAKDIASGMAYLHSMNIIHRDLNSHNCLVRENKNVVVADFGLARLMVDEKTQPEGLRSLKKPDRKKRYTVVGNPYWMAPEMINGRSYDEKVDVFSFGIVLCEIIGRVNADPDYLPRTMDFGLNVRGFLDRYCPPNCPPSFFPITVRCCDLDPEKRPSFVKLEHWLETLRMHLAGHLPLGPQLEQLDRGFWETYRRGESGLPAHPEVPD
Chain of UniProt P51817 (whole entry, looked up): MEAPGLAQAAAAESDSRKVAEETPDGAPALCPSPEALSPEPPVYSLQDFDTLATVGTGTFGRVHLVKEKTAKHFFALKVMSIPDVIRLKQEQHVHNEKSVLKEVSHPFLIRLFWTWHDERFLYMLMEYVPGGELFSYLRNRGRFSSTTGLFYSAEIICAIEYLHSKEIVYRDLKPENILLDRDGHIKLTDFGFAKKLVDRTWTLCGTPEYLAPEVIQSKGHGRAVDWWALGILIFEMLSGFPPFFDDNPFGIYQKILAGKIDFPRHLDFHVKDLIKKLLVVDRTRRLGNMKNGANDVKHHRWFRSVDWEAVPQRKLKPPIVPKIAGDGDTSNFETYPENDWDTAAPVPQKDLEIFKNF

Set 1
Target: Calcium/calmodulin-dependent protein kinase type II subunit alpha (CAMK2A, Homo sapiens, UniProt Q9UQM7)
Chain of UniProt Q9UQM7 (whole entry, looked up): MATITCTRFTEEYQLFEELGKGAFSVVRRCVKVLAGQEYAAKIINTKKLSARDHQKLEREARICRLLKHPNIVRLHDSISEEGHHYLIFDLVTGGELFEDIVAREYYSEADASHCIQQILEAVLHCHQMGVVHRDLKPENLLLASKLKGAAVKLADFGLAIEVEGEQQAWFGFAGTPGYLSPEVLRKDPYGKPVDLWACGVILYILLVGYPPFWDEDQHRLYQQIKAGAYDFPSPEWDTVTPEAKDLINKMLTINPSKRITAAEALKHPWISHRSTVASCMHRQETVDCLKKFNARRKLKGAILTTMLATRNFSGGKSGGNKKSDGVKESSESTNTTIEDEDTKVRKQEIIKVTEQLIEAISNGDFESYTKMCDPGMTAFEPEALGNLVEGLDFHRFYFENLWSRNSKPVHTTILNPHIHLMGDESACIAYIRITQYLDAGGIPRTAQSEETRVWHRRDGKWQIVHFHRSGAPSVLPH
Observed: enzyme activity
Action: inhibitor
Concentration: 10 µM
SMILES	inhibition
CC(C)(CCCCCC(O)CCCCCC(C)(C)C(=O)O)C(=O)O	9%
C=C[C@@]1(C)CC(=O)[C@]2(O)[C@@]3(C)[C@@H](O)CCC(C)(C)[C@@H]3[C@H](O)[C@H](OC(C)=O)[C@@]2(C)O1	-30%
CC(COc1ccccc1)NC(C)C(O)c1ccc(O)cc1 (stereo not drawn)	-7%
COC(=O)[C@H](Cc1ccccc1)NC(=O)[C@H](CC(=O)O)NCCC(C)(C)C	8%
O=C1OC(OC(=O)c2cccnc2Nc2cccc(C(F)(F)F)c2)c2ccccc21 (stereo not drawn)	-3%
C/C=C(/C)C(=O)O[C@H]1c2c(ccc3ccc(=O)oc23)OC(C)(C)[C@H]1OC(=O)/C(C)=C\C	2%
Cc1ccc(S(=O)(=O)NC(=O)NN2CC3CCC[C@@H]3C2)cc1 (stereo in doubt)	4%
COc1ccc(-c2cc(=O)c3c(O)cc(O[C@@H]4O[C@H](CO)[C@@H](O)[C@H](O)[C@H]4O[C@@H]4O[C@@H](C)[C@H](O)[C@@H](O)[C@H]4O)cc3o2)cc1O	-7%
CC(C)CCC[C@@H](C)[C@H]1CC[C@H]2[C@@H]3CC[C@H]4C[C@@H](O)CC[C@]4(C)[C@H]3CC[C@]12C	6%
C[C@H]1O[C@]2(CS1)CN1CCC2CC1	17%
CC(C)(O)[C@@H](O)COc1c2ccoc2cc2oc(=O)ccc12	-26%
C=C1CC[C@@H]2[C@](C)(CO)[C@H](O)CC[C@@]2(C)[C@@H]1/C=C/C1=CCOC1=O	7%
Nc1ccn([C@H]2C[C@H](O)[C@@H](COP(=O)(O)OP(=O)(O)O)O2)c(=O)n1	3%
COC(=O)C[C@](O)(CCCC(C)(C)O)C(=O)O[C@@H]1C(OC)=C[C@]23CCCN2CCc2cc4c(cc2[C@H]13)OCO4	-1%

Set 2
SMILES: COc1cc2ncc(-c3ccccc3)nc2cc1OC
Observed: enzyme activity
Action: inhibitor
Concentration: 0.5 µM
Relative to: control
target	remaining activity [%]
TAOK3 (Homo sapiens, UniProt Q9H2K8)	88.9
Insulin receptor (INSR, Homo sapiens, UniProt P06213)	89.1
NEK11 (Homo sapiens, UniProt Q8NG66)	114
HIPK1 (Homo sapiens, UniProt Q86Z02)	93.4
MATK (Homo sapiens, UniProt P42679)	101
Cyclin-dependent kinase 3, with cyclin E (CDK3, Homo sapiens, UniProt Q00526)	83.8
FLT4 (Homo sapiens, UniProt P35916)	90.4
PRKX (Homo sapiens, UniProt P51817)	97.4
FYN (Homo sapiens, UniProt P06241)	100
MARK3 (Homo sapiens, UniProt P27448)	98.2
PKN1 (Homo sapiens, UniProt Q16512)	104
STK25 (Homo sapiens, UniProt O00506)	90.7
ITK (Homo sapiens, UniProt Q08881)	97.8
PASK (Homo sapiens, UniProt Q96RG2)	98.9
ALK (Homo sapiens, UniProt Q9UM73)	94.1
LIM domain kinase 1 (LIMK1, Homo sapiens, UniProt P53667)	77.7
FER (Homo sapiens, UniProt P16591)	80
AKT1 (Homo sapiens, UniProt P31749)	99.2
SRC (Homo sapiens, UniProt P12931)	96.1
CDC42BPA (Homo sapiens, UniProt Q5VT25)	85.4
NLK (Homo sapiens, UniProt Q9UBE8)	89.3
FGR (Homo sapiens, UniProt P09769)	85.4

Set 3
SMILES: C[C@@H]1[C@H](O)[C@@H](C)/C=C/C=C/C=C/C=C/C=C/C=C/C=C/[C@H](O[C@@H]2O[C@H](C)[C@@H](O)[C@H](N)[C@@H]2O)C[C@@H]2O[C@](O)(C[C@@H](O)C[C@@H](O)[C@H](O)CC[C@@H](O)C[C@@H](O)CC(=O)O[C@H]1C)C[C@H](O)[C@H]2C(=O)O
Organism: Leishmania donovani
Strain: DD8
Medium: promastigotes
concentration	time	promastigote number
30 µM	48 h	4.33e+06 and 4.35e+06
66660 µM	48 h	1250 and 1240
330 µM	72 h	98500 and 58400
33330 µM	72 h	1240 and 1550
160 µM	24 h	1.06e+06 and 1.05e+06
3330 µM	24 h	13700 and 13500

Set 4
Structure (SMILES): O=C(Nc1cccnn1)N1CCC(=Cc2cccc(Oc3ccc(C(F)(F)F)cn3)c2)CC1
Concentration: 1 µM
target	observed	technique	remaining binding [%]
CAMK1G (Homo sapiens, UniProt Q96NX5)	cell-free assay	competition with immobilised ligand	95
COQ8A (Homo sapiens, UniProt Q8NI60)	cell-free assay	competition with immobilised ligand	78
TESK1 (Homo sapiens, UniProt Q15569)	cell-free assay	competition with immobilised ligand	91
PRKCQ (Homo sapiens, UniProt Q04759)	cell-free assay	competition with immobilised ligand	67
BRSK2 (Homo sapiens, UniProt Q8IWQ3)	cell-free assay	competition with immobilised ligand	90
Tyrosine-protein kinase ABL1, non-phosphorylated (ABL1, Homo sapiens, UniProt P00519, F317I)	binding	competition with immobilised ligand	100
LRRK2 (Homo sapiens, UniProt Q5S007)	cell-free assay	competition with immobilised ligand	99
MAP3K20 (Homo sapiens, UniProt Q9NYL2)	cell-free assay	competition with immobilised ligand	95
STK32B (Homo sapiens, UniProt Q9NY57)	cell-free assay	competition with immobilised ligand	82
WNK1 (Homo sapiens, UniProt Q9H4A3)	cell-free assay	competition with immobilised ligand	100
CDK18 (Homo sapiens, UniProt Q07002)	cell-free assay	competition with immobilised ligand	76
ACVRL1 (Homo sapiens, UniProt P37023)	cell-free assay	competition with immobilised ligand	77
ALK (Homo sapiens, UniProt Q9UM73, L1196M)	cell-free assay	competition with immobilised ligand	100
GRK1 (Homo sapiens, UniProt Q15835)	cell-free assay	competition with immobilised ligand	89
ZAP70 (Homo sapiens, UniProt P43403)	cell-free assay	competition with immobilised ligand	100
RIOK1 (Homo sapiens, UniProt Q9BRS2)	cell-free assay	competition with immobilised ligand	100
MUSK (Homo sapiens, UniProt O15146)	cell-free assay	competition with immobilised ligand	100
CDC42BPG (Homo sapiens, UniProt Q6DT37)		competition binding	84
ULK1 (Homo sapiens, UniProt O75385)	cell-free assay	competition with immobilised ligand	84
KIT (Homo sapiens, UniProt P10721, V559D)	cell-free assay	competition with immobilised ligand	75
HIPK4 (Homo sapiens, UniProt Q8NE63)	cell-free assay	competition with immobilised ligand	100

A few entries again (set 3):
concentration	time	promastigote number
30 µM	48 h	4.33e+06 and 4.35e+06
33330 µM	72 h	1240 and 1550
3330 µM	24 h	13700 and 13500
160 µM	24 h	1.06e+06 and 1.05e+06
330 µM	72 h	98500 and 58400
66660 µM	48 h	1250 and 1240
